# Results pooled from the literature.
# Every numbered part comes from another study and shows a few of its results, in no order. Substitutions count along the parent as printed.

# Set 1
# Target: CCND1, cyclin fold, Cln2 fusion (human)
# Method: yeast growth competition, sequencing
# Medium: yeast
# Setting: strong parent motif
# Relative to: not given
# Reading: higher = stronger binding
# Starting sequence: RBL1 docking peptide (human); GSAKRRLFGEDPP; partner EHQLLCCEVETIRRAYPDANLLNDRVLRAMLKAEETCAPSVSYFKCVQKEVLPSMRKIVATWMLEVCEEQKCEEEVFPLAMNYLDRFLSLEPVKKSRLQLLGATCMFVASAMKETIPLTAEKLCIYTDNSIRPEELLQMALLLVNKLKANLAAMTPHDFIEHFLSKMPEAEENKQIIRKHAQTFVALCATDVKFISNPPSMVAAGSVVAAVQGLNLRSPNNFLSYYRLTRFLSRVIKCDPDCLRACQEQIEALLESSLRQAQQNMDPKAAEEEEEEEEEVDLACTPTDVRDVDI
Variant,normalised enrichment score
E10M,0.829
F8Q,0.14
S2R,1.32
G9E,2.3
P12R,1.49
P13I,1.64
R6L,1.7
A3H,0.301
F8M,0.011
F8A,0.225
K4E,0.76
D11E,2.33
A3K,0.312
R6K,2.62
S2D,0.564
G9K,1.62
R5K F8L,0.14
P12F,1.75

# Set 2
# Target: Sal-like protein 4, full length isoform B (SALL4, Homo sapiens, UniProt Q9UJQ4-2, residues 1-616)
# Method: universal PBM
# Molecule type: double-stranded DNA, one strand shown
# Medium: in vitro
# Tested at: not given
# Setting: 8-mer, flanks averaged, mean of replicates
# Reading: higher = stronger binding
# Construct (chain): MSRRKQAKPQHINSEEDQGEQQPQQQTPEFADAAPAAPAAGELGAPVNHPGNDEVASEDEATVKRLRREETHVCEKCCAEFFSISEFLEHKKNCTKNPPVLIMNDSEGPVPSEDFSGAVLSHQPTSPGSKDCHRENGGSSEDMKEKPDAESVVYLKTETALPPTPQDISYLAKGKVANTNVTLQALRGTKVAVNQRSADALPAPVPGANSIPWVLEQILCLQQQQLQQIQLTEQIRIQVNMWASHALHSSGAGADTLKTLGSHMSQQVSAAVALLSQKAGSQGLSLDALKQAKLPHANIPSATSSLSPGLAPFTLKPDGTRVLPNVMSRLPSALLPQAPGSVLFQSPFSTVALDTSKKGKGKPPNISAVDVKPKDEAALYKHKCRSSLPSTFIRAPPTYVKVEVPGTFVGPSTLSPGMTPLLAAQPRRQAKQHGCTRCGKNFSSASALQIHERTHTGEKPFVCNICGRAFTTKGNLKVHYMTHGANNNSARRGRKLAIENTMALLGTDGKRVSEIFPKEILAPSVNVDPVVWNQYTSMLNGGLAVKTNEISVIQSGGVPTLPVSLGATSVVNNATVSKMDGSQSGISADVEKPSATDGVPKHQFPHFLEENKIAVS
Oligonucleotide,E-score
AGGGTAGC,-0.116
CGCGGAAA,-0.161
CTAGATAG,0.0468
AGCCTTTA,0.0815
CAGTCTGC,-0.222
AGCACTCA,-0.159
ATCACTAA,0.0901
ATAAATCA,0.333
GACTGCAA,-0.063
ACAGCAGA,0.0309
CACTACAC,0.0402
GTAGGGGA,-0.14
GGCTACAC,0.0663
AGTGAAGC,0.0461
TAGATAAA,0.283
AGCCGAGG,-0.2
AGGCGACT,-0.0908
GCAAAGGA,-0.0853
CTGTATAC,0.232
ATCAGGGC,-0.115
ACGACCGC,-0.261
ACGAAACT,0.0736
TGTCGGAA,0.00342
ATCTTCAC,0.0382
AAAATTGA,0.333

# Set 3
# Target: UBE2C UBC core domain (UniProt O00762)
# Method: yeast two-hybrid
# Medium: yeast
# Setting: mostly zero background
# Relative to: not given
# Reading: higher = stronger interaction
# B1: TRIM68 RING domain (UniProt Q6AZZ1); chain LVEAIVEEVACPICMTFLREPMSIDCGHSFCHSCLSGLWEIPGESQNWGYTCPLCRAPVQPRNLRP
# B2: RNF130 RING domain (UniProt Q86XS8); chain DKETDPDFDHCAVCIESYKQNDVVRILPCKHVFHKSCVDPWLSEHCTCPMCKLNILKALGIV
# B3: RNF32 RING domain (UniProt Q9H0A6); chain VQALRRETHECSICLAPLSAAGGQRVGAGRRSREMALLSCSHVFHHACLLALEEFSVGDRPPFHACPLCRSCYQKKILEC
# B4: NHLRC1 RING domain (UniProt Q6VVB1); chain MREAEISLLECKVCFEKFGHRQQRRPRNLSCGHVVCLACVAALAHPRTLALECPFCRRACRGCDTSD
# B5: MDM2 RING domain (UniProt Q00987); chain TQDKEESVESSLPLNAIEPCVICQGRPKNGCIVHGKTGHLMACFTCAKKLKKRNKPCPVCRQPIQMIVLTYFP
# B6: CBLL1 RING domain (UniProt Q75N03); chain GEKDDTPVHFCDKCGLPIKIYGRMIPCKHVFCYDCAILHEKKGDKMCPGCSDPVQRIEQCT
# Construct (chain): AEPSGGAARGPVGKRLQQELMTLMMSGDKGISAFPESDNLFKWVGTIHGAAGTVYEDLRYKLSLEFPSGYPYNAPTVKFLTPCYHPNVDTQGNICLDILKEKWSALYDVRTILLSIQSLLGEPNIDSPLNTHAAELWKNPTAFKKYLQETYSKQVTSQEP
Sequence,lacZ reporter activity
EIKDYKARLTCPCCNMRKKDAVLTKCFHVFCFECVKTRYDTRQRKCPKCNAAFGANDFHR (RNF20 RING domain (UniProt Q5VTR2)),0
B1 (TRIM68 RING domain),0
B2 (RNF130 RING domain),0
VPADASPDSKCPICLDRFDNVSYLDRCLHKFCFRCVQEWSKNKAECPLCKQPFDSIFHSV (TOPORS RING domain (UniProt Q9NS56)),0
B3 (RNF32 RING domain),0
B4 (NHLRC1 RING domain),0
B5 (MDM2 RING domain),0
B6 (CBLL1 RING domain),0

# Set 4
# Target: Ras GTPase-activating protein-binding protein 1, C-terminal RGG region (G3BP1, Homo sapiens, UniProt Q13283)
# Chain of UniProt Q13283 (whole entry, looked up): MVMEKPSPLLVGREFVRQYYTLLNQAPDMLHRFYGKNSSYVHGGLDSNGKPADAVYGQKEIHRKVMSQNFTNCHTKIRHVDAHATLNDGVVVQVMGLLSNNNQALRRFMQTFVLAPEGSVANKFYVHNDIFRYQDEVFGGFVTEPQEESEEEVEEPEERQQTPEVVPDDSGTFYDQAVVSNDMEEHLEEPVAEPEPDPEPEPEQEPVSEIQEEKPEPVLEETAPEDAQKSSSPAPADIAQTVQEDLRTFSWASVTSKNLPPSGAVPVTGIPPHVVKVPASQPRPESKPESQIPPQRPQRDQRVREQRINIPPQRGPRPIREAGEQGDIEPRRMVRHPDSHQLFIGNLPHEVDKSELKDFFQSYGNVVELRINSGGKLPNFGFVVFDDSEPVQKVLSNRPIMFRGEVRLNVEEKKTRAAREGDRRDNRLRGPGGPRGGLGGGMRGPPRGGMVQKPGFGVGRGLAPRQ
# Method: RNA Bind-n-Seq
# Molecule type: RNA
# Medium: in vitro
# Tested at: 1 µM
# Setting: whole 134-nt RNA, ends assumed
# Added: 150 mM KCl
# Relative to: input library
# Reading: higher = stronger binding
# All sequences stand within: GGGAGUUCUACAGUCCGACGAUC … UGGAAUUCUCGGGUGUCAAGG
Oligonucleotide,log2 enrichment
CAUCCUUUGGGCCCCUCAAGGCCUUCAACCUGGUCAAGGACAGUGCCACGGGGCUCUCCAAGGGCUACGCCUUCUGUGAGUACGUGGACA,-1.93
CCUCAAGUCCUGUGCUACACAUCGUAUGUACCGAAUCGGUGGAAAAAGGUGGAAAGUAUUAUGUUACGCCGUUCGGAUCUGCACUUCCAG,-0.743
GCAGGAAGUAAAAACAAAUGGAAAUGCUUCGGAUAGUGGCAGGGGUGGGGGUUGCUAAGGAAAGGGUGGGAUGGGAGUGGGUAUAGAGUU,0.736
GCAGGAAGUAAAAACAAAUGGAAAUGCUUCGGAUAGUGGCAGGGGUGGGGGUUGCUAAGGAAAGGGUGGGAUGGGCGUGGGUAAAGAGUU,1.25
AGUCCUGUGCUACACAUCGUAUGUACCGAAUCGGGAGGGAAAAAAAGGGUUUUUGGGAAAGUAUUAUGUUACGCCGUUCGGAUCUGCACU,-0.186

# Repeated from above (set 2):
Oligonucleotide,E-score
GGCTACAC,0.0663
GTAGGGGA,-0.14
GCAAAGGA,-0.0853
AAAATTGA,0.333
AGCACTCA,-0.159
AGGCGACT,-0.0908
TAGATAAA,0.283
AGGGTAGC,-0.116
CACTACAC,0.0402
